Experimental data pooled from the literature.
Parts stem from different laboratories: compare values within a part only. Changes are numbered by the printed parent chain.

Study 1
Target: Sal-like protein 4, full length isoform A (SALL4, Homo sapiens, UniProt Q9UJQ4, residues 1-1053)
Sequence of UniProt Q9UJQ4 (whole entry, looked up): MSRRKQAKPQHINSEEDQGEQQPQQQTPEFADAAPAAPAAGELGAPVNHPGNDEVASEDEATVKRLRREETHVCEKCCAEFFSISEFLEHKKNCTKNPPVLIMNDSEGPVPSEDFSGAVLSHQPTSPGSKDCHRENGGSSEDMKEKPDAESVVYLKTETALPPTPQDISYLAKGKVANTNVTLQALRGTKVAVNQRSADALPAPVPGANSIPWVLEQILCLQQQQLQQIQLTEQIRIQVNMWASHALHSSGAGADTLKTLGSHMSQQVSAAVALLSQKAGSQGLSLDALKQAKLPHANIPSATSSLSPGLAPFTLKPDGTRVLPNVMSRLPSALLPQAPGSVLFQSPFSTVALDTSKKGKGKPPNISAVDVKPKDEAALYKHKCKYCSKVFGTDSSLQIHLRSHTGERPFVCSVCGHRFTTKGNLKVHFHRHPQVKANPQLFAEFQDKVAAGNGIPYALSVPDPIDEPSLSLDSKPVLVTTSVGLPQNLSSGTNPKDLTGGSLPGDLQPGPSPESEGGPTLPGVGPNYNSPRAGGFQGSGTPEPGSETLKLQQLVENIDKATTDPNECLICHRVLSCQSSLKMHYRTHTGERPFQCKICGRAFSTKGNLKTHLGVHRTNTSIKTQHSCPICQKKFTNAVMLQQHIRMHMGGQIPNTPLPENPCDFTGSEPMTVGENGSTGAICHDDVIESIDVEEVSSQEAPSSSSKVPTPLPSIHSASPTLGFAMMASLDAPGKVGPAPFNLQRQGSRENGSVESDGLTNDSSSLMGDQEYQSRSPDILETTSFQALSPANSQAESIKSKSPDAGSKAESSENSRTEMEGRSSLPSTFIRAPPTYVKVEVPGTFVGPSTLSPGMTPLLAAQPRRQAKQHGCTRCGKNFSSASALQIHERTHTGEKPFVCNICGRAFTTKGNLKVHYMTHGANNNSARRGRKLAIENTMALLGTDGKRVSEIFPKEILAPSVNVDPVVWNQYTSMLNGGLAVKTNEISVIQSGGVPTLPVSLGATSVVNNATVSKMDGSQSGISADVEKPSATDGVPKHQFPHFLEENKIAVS
Method: universal PBM
Form: double-stranded DNA, one strand shown
Medium: in vitro
Tested at: 600 nM
Notes: 8-mer, flanks averaged, mean of replicates
Direction: higher = stronger binding
Endpoint: E-score
ATTCTGGC: -0.0998
TCGGTGAA: -0.0729
GCCATTTA: 0.102
ATTGACGG: 0.0805
ATATCACC: 0.251
ACTTGCCT: -0.119
GATGGCGC: -0.302

Study 2
Target: RNA binding protein fox-1 homolog 2, RRM domain, GST-SBP tag (RBFOX2, Homo sapiens, UniProt O43251-10, residues 100-194)
Method: RNA Bind-n-Seq
Form: RNA
Medium: in vitro
Tested at: 365 nM
Notes: natural RNA segment, single round, ends assumed
Reference: no-protein control
Direction: higher = stronger binding
Endpoint: RBNS enrichment (R)
All sequences stand within: GGGAGUUCUACAGUCCGACGAUC … UGGAAUUCUCGGGUGCCAA
AGCAGCGACUCAAGGGCCGUGUGUACAUAUGUAAAUGAGAAAUAGACAUGUCAACAAGAUACAUUCAUUUCUCCCGGAAUGUGUAUUGUUUUUAUUUUACAAAACAGAGA: 0.505
AAAAAGACUCAGCUCACUCAAUGAGAGAAUGUGAUUUACUUUAUAGAACGUAUAAUCAACUUUGUUGAAUAAUUUGUUCUAUUAAGGCUGUCUAAAGUAUGUGAUGUCUU: 0.521
UGUAGCUGGGAAGCAUCUUUUAGCCGACUAUACAUCACUUUGUUUUGAAACAAGGAAGCUGCGCUCUGUCAUGUGCUGCCUUUUUUAUUUAUUCAGGCUAAACCUACAAU: 1.88
GUUAGAAUGUCUGCCUUACUGGUUUCCCCAGGGAAGGAAAAAUACACUUCCACCCUUUUUUCUAAGUGUUCGUCUUUAGUUUUGAUUUUGGAAAGAUGUUAAGCAUUUAU: 0.905
GGGGUUAUAUUUCUAAGUGAUUUACAAUUUCUGUUUCUAAAAUUGUUGGGAUUUAGAAAUGUUUCAAUUCCAAGAAAUUUUAUUUUACUUUACCAUGAGAUUGCCAUUUA: 0.749
AUGCCAUGGAAGGUCCAGAAGAAAGACGCCUUCUCACCCAUCCUGAAGCUUUGGCAGCCUUCUGGAACGUCCCUCAUCCCCAGAAUCUCCCUUCUUACCCGAGUGCCUCC: 0.385
UGUAAUCAUAAAAUAACAGUAAAUUCCAAACCUCAAAAACUAUUAUGGCCUGAGCACAGCUGAAAUCUAGCAGAGUUUAACUCUUCUGCCUCCAUGUCUGUCACUUAUAA: 0.441

Study 3
Target: CCNE2, cyclin fold, Cln2 fusion (human)
Method: yeast growth competition, sequencing
Medium: yeast
Notes: strong parent motif
Reference: not given
Direction: higher = stronger binding
Endpoint: normalised enrichment score
Starting sequence: SCAPER docking peptide (human); SNARRSLNFGGST; partner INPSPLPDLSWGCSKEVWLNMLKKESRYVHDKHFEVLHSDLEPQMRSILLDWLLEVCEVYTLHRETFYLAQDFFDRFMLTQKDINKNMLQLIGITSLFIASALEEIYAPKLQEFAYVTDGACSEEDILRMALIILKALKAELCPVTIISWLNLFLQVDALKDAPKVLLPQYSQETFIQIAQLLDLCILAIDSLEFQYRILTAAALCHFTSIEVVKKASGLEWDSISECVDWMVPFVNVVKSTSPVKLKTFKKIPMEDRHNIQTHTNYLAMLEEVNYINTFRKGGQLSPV
S1I: 1.3
L7G: 0.366
R4H: 0.475

Further values, each from its own experiment
PhoQ, residues 284 288 289 292 302 303 AANNSF — fold induction (PhoP, residues 12 14 15 18 19 STWGI (Escherichia coli, UniProt P23836); Sort-seq, measured: YFP reporter; E. coli; PhoQ-PhoP variant library, added: 10 µM Mg2+; reference: high Mg2+ state, higher = stronger signaling): 0.76
